# Measurements gathered from unrelated publications.
# DRD3: D(3) dopamine receptor (DRD3, Homo sapiens, UniProt P35462)
# UniProt P35462, sequence (whole entry, looked up): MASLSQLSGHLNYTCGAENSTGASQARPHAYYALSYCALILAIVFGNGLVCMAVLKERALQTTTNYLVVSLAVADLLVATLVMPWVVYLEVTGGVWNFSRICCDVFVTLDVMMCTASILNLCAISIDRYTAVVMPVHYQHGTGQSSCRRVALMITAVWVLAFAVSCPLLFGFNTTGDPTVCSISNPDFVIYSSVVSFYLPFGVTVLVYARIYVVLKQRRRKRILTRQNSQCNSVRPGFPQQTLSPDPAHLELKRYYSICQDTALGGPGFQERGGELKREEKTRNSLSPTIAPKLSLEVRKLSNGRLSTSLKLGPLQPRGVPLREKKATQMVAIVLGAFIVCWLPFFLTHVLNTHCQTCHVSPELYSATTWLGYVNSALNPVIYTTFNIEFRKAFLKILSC
# UniProt P19784, sequence (whole entry, looked up): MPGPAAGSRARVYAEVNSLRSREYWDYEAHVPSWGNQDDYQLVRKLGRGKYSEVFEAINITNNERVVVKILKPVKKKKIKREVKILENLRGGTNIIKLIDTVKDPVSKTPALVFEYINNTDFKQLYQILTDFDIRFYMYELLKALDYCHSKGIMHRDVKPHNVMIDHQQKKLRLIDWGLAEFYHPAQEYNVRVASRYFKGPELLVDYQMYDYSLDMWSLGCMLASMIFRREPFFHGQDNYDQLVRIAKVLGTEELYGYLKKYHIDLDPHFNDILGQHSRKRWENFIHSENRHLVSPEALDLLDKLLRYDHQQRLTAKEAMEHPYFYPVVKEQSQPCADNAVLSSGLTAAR
# UniProt P0DMS8, sequence (whole entry, unmodified, looked up): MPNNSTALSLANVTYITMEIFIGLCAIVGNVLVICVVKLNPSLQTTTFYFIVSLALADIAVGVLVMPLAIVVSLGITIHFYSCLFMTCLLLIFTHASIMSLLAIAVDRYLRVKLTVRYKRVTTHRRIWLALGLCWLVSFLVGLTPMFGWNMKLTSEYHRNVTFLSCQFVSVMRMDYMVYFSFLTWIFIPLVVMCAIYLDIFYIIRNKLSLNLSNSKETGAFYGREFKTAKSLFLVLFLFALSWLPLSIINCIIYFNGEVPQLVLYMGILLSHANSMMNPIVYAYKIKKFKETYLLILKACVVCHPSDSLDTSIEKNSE
# UniProt O96017, sequence (whole entry, looked up): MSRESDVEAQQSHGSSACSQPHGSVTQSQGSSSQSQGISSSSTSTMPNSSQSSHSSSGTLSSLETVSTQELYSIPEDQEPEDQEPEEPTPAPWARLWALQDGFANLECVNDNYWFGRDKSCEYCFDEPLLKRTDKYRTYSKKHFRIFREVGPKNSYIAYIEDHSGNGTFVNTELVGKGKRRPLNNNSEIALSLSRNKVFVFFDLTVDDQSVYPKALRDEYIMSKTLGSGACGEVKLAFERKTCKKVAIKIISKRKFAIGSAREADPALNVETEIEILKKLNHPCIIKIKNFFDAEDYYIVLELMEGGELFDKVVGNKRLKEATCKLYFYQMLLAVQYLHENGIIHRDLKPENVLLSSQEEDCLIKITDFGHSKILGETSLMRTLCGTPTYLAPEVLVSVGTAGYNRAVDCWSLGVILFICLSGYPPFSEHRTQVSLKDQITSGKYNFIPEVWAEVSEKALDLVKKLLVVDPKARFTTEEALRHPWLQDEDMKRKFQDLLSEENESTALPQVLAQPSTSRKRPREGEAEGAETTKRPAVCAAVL
SMILES,tested on,assay,test system,setting,endpoint,value
Cn1cc(-c2nc(N3CCC(c4ccccn4)C3)c3ccccc3n2)cn1 (centres unmarked),,metabolic stability,"mouse, liver microsomes",,microsomal CLint,88 µL/min/mg
CCCN(O)N=Nc1ccc(S(=O)(=O)Nc2cc(C)on2)cc1,,ABTS scavenging,,120 µg/mL,inhibition,26.8%
CN(C)c1ncnc2c1ncn2[C@@H]1O[C@H](CO)[C@@H](O)[C@H]1O,"ADORA3 (Homo sapiens, UniProt P0DMS8, M174Y)","G protein activation, agonist",,,EC50,8.5 µM
O=c1c2ccc(Oc3ccc(OC(F)(F)F)cc3)cc2[nH]c2ccc(F)c(Cl)c12,,metabolic stability,"mouse, liver microsomes","1 µM, pH 7.4",microsomal CLint,8.91 µL/min/mg
O=C(c1ccc(F)cc1)C1CCN(CCn2c(=O)[nH]c3ccccc3c2=O)CC1,,"metabolic stability, mass spectrometry","human, liver microsomes",30 min,compound remaining,47%
CNc1ncc2c(/C=C/C(=O)N3CCC(OC)CC3)nn(Cc3cccc(C(F)(F)F)c3)c2n1,"CSNK2A2 (Homo sapiens, UniProt P19784)","enzyme activity, inhibitor, radiometric",,1 µM,remaining activity,109%
COc1cc(-c2cncc3c2CN(C)Cc2cc(N4CCNCC4)ccc2-3)cc(OC)c1OC,"CHEK2 (Homo sapiens, UniProt O96017)","enzyme activity, inhibitor",,1 µM,remaining activity,111%
N[C@@H](COCC(=O)N1CCC[C@H](C(=O)NCc2nc(-c3ccc(C(F)(F)F)cc3)cs2)C1)c1ccccc1,,metabolic stability,"male Sprague-Dawley rat, liver microsomes",0.5 µM,microsomal CLint,74 µL/min/mg
O=c1c2cccc(Oc3ccc(OC(F)(F)F)cc3)c2[nH]c2cc(Cl)cc(F)c12,,metabolic stability,"mouse, liver microsomes","1 µM, pH 7.4",microsomal CLint,3.74 µL/min/mg
Cc1[nH]c(C)c(S(=O)(=O)Nc2ccc(C(C)C)cc2)c1C(=O)N1CCCC1,DRD3,"β-arrestin recruitment, antagonist",,,IC50,14 µM
O=c1c2ccccc2[nH]c2cc(Oc3ccc(OC(F)(F)F)cc3)ccc12,,metabolic stability,"mouse, liver microsomes","1 µM, pH 7.4",microsomal CLint,53.5 µL/min/mg
CNC(C)(C)COCC(=O)N1CCC[C@H](C(=O)NCc2nc(-c3ccc(C(F)(F)F)cc3)cs2)C1,,metabolic stability,"male Sprague-Dawley rat, liver microsomes",0.5 µM,microsomal CLint,10 µL/min/mg
O=c1c2ccc(Oc3ccccc3OC(F)(F)F)cc2[nH]c2cc(Cl)cc(F)c12,,metabolic stability,"mouse, liver microsomes","1 µM, pH 7.4",microsomal CLint,31.9 µL/min/mg
O=C(C=Cc1ccccc1)Nc1ccc(Oc2nnc(-c3ccc(Cl)cc3)c3ccccc23)cc1,MCF7,"cell growth or viability, MTT",,0.625 µM,cell death,5.31%
Cn1ccnc1CNc1nc(-c2ccccn2)nc2ccccc12,,metabolic stability,"mouse, liver microsomes",,microsomal CLint,62 µL/min/mg
CC(=NNC(=O)c1ccccc1Cl)c1ccc(Nc2nnc(-c3ccc(Cl)cc3)c3ccccc23)cc1,MCF7,"cell growth or viability, MTT",,1.25 µM,cell death,37.9%
O=C(NCc1nc(-c2ccccc2)cs1)[C@H]1CCCN(C(=O)COCCF)C1,,metabolic stability,"human, liver microsomes",0.5 µM,microsomal CLint,16 µL/min/mg
O=C1NCCc2[nH]cc(S(=O)(=O)Nc3ccc(C(F)(F)F)c(Cl)c3)c21,DRD3,"β-arrestin recruitment, antagonist",,,IC50,32 µM
c1ccc(-c2nc(N3CCc4ncccc4C3)c3ccccc3n2)nc1,,metabolic stability,"mouse, liver microsomes",,microsomal CLint,344 µL/min/mg
O=c1c2ccc(OCc3ccc(OC(F)(F)F)cc3)cc2[nH]c2cc(Cl)cc(F)c12,,metabolic stability,"mouse, liver microsomes","1 µM, pH 7.4",microsomal CLint,11.5 µL/min/mg
Cn1cc(CNc2nc(-c3ccccn3)nc3ccccc23)cn1,,metabolic stability,"mouse, liver microsomes",,microsomal CLint,179 µL/min/mg
CCOCC(=O)N1CCC[C@H](C(=O)NCc2nc(-c3ccc(C#N)cc3)cs2)C1,,metabolic stability,"male Sprague-Dawley rat, liver microsomes",0.5 µM,microsomal CLint,78 µL/min/mg
CCn1ncc2c([C@](O)(c3ccc(C(F)(F)F)c(Cl)c3)C3CC3)n(C)nc2c1=O,,metabolic stability,"human, liver microsomes","0.5 µM, pH 7.4",microsomal CLint,< 3 µL/min/mg
CN1CCC[C@H](OCC(=O)N2CCC[C@H](C(=O)NCc3nc(-c4ccc(C(F)(F)F)cc4)cs3)C2)C1,,metabolic stability,"human, liver microsomes",0.5 µM,microsomal CLint,43 µL/min/mg
Cc1nn(C2CC2)c(=O)c2nn(C)c(Cc3ccc(C(F)(F)F)c(C#N)c3)c12,,metabolic stability,"human, liver microsomes","0.5 µM, pH 7.4",microsomal CLint,< 7 µL/min/mg
c1ccc(C2CCN(c3nc(-c4cnn5c4CCCC5)nc4ccccc34)C2)nc1 (centres unmarked),,metabolic stability,"mouse, liver microsomes",,microsomal CLint,666 µL/min/mg
CC(C)(C)OC(=O)N1CCC(Oc2ccc3c(=O)c4c(Cl)cc(F)cc4[nH]c3c2)CC1,,metabolic stability,"mouse, liver microsomes","1 µM, pH 7.4",microsomal CLint,5.98 µL/min/mg
COCC(=O)N1CCC[C@H](C(=O)NCc2nc(-c3ccc(-c4ccccn4)cc3)cs2)C1,,metabolic stability,"human, liver microsomes",0.5 µM,microsomal CLint,37 µL/min/mg
Cc1cccc(CNc2nc(-c3ccccn3)nc3ccccc23)n1,,metabolic stability,"mouse, liver microsomes",,microsomal CLint,151 µL/min/mg

# Some of these lines once more:
SMILES,tested on,assay,test system,setting,endpoint,value
O=c1c2ccc(Oc3ccc(OC(F)(F)F)cc3)cc2[nH]c2ccc(F)c(Cl)c12,,metabolic stability,"mouse, liver microsomes","1 µM, pH 7.4",microsomal CLint,8.91 µL/min/mg
O=C(c1ccc(F)cc1)C1CCN(CCn2c(=O)[nH]c3ccccc3c2=O)CC1,,"metabolic stability, mass spectrometry","human, liver microsomes",30 min,compound remaining,47%
CNc1ncc2c(/C=C/C(=O)N3CCC(OC)CC3)nn(Cc3cccc(C(F)(F)F)c3)c2n1,"CSNK2A2 (Homo sapiens, UniProt P19784)","enzyme activity, inhibitor, radiometric",,1 µM,remaining activity,109%
